Measured values collected from several papers.
Each numbered part is a random draw from the data of one study; scales do not carry over between parts. Substitutions count along the parent as printed.

Study 1
Target: ABI1, truncated, D143A, DHFR fusion (Arabidopsis thaliana)
Technique: DHFR PCA, deep sequencing
Matrix: yeast
Notes: methotrexate growth selection, single substitutions
Added: (+)-ABA 0.0091 µM
Baseline: wild-type fitted maximum
Direction: higher = stronger binding
Quantity: relative binding score
Starting sequence: PYL1, truncated, DHFR fusion (Arabidopsis thaliana); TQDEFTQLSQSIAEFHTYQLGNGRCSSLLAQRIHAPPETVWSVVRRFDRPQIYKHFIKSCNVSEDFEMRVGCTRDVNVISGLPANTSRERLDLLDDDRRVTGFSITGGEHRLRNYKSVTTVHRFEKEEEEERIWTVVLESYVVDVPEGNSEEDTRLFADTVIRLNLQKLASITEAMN; partner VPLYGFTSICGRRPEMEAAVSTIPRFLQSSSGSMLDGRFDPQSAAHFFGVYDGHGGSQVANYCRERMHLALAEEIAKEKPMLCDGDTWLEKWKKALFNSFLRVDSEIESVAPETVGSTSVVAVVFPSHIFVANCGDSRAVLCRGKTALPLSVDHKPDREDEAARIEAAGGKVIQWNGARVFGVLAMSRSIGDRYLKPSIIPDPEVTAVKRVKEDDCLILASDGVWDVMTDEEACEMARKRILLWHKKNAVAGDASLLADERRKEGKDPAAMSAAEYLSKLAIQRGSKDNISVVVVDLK
K126P: 55.4%
S63E: 23.2%
L29W: 0.224%
S87H: 51.8%
N85M: 69%

Study 2
Target: CCNB1, cyclin fold, Cln2 fusion (human)
Technique: yeast growth competition, sequencing
Matrix: yeast
Notes: weak parent motif
Baseline: not given
Direction: higher = stronger binding
Quantity: normalised enrichment score
Starting sequence: RB1 docking peptide (human); PKPLKKLRFDIEG
PKPLAKARFDIEG [K5A L7A]: 0.206
PKPAKKLRFDIEG [L4A]: 0.89
PKPLKSLRFDIEG [K6S]: -0.238
PKPLKKLREDIEG [F9E]: 0.000962
PKPLKKLRFNIEG [D10N]: 0.574
RKPLKKLRFDIEG [P1R]: 0.826
PKPLKKLRFDLEG [I11L]: 1.42

Study 3
Target: Histone acetyltransferase KAT6A, winged helix 2, GST fusion (KAT6A, Homo sapiens, UniProt Q92794, residues 85-181)
Technique: protein binding microarray
Form: double-stranded DNA, one strand shown
Matrix: in vitro
Tested at: not given
Notes: 8-mer, flanks averaged, mean of 2 arrays, mostly near background
Baseline: not given
Direction: higher = stronger binding
Quantity: E-score
Target sequence (chain): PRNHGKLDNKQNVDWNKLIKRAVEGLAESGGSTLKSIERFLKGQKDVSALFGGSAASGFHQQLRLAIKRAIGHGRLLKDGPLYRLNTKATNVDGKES
TAGGGACA: -0.0197
CAGCCTGA: 0.0807
CAACCTGG: 0.0511
ATGTGACG: -0.0794
AAACTCGC: 0.0878
AGCATTGG: -0.0719
AGTGTAGC: -0.0354

Single results of other studies
PhoQ, residues 284 288 289 292 302 303 NLCILV — fold induction (PhoP, residues 12 14 15 18 19 AWHSL (Escherichia coli, UniProt P23836); Sort-seq, item: YFP reporter; E. coli; PhoQ-PhoP variant library, added: 10 µM Mg2+; baseline: high Mg2+ state, higher = stronger signaling): 1.2
